# Published values collected from several papers.
# Numbers after ± are the reported error.
# Metallo-beta-lactamase type 2: Metallo-beta-lactamase type 2 (Serratia marcescens, UniProt P52699)
# PDIA3: Protein disulfide-isomerase A3 (PDIA3, Homo sapiens, UniProt P30101)
# UniProt P30101, sequence (whole entry, looked up): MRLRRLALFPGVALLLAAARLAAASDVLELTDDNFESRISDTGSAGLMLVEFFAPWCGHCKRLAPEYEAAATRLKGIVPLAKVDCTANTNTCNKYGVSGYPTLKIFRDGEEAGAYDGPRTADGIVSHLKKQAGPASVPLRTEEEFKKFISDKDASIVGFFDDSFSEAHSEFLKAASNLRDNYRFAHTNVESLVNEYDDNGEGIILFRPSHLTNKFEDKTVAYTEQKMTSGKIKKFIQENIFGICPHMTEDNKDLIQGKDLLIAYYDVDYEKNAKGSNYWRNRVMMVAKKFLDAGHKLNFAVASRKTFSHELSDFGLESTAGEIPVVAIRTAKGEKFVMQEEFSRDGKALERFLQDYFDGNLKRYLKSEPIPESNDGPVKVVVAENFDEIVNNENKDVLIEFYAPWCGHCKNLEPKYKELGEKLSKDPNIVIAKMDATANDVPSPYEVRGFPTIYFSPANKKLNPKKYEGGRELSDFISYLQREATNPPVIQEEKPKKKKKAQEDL
# KLRK1 with ULBP6: NKG2-D type II integral membrane protein, with ULBP6 (KLRK1, Homo sapiens, UniProt P26718)
# UniProt P26718, sequence (whole entry, looked up): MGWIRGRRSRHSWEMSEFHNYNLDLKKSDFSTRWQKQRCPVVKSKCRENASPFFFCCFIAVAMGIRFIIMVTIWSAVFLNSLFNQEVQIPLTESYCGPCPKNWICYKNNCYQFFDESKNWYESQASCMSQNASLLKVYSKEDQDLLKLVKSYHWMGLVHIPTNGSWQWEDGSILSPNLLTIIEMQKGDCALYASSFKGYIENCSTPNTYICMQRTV
# NNMT: Nicotinamide N-methyltransferase (NNMT, Homo sapiens, UniProt P40261)
# UniProt P40261, sequence (whole entry, looked up): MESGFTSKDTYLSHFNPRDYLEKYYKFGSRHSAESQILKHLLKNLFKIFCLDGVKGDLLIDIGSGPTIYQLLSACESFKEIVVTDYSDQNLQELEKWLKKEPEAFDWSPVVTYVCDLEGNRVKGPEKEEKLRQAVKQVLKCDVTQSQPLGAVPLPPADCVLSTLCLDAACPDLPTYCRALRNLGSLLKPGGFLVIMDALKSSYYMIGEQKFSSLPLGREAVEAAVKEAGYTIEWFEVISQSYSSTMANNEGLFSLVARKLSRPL
# UniProt O15294, sequence (whole entry, looked up): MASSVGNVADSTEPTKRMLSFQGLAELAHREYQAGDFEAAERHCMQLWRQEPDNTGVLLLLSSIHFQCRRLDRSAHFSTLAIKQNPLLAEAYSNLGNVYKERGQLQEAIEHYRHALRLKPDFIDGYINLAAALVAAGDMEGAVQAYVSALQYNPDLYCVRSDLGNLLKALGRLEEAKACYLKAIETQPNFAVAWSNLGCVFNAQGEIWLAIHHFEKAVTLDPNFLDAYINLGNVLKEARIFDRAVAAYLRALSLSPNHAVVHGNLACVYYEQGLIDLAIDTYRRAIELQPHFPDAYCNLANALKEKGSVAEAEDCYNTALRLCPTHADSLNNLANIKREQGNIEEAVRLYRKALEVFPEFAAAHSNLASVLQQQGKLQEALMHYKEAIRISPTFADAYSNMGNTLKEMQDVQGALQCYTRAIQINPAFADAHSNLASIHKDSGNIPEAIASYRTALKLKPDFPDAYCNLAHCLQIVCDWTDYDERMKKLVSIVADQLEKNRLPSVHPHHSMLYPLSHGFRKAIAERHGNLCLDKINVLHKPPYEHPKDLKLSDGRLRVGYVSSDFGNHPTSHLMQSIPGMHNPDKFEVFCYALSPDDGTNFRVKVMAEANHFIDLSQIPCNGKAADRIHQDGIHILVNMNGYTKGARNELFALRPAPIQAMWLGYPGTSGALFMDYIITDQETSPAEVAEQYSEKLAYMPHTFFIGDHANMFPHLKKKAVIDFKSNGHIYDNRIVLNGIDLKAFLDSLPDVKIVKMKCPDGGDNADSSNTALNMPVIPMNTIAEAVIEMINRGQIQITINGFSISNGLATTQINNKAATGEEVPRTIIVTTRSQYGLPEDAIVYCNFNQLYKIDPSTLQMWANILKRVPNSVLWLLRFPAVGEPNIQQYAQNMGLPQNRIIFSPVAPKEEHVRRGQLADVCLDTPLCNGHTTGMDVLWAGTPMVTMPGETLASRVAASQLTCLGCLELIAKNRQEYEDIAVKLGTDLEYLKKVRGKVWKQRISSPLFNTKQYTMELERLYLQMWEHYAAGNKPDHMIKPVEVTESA
# UniProt P32300, sequence (whole entry, looked up): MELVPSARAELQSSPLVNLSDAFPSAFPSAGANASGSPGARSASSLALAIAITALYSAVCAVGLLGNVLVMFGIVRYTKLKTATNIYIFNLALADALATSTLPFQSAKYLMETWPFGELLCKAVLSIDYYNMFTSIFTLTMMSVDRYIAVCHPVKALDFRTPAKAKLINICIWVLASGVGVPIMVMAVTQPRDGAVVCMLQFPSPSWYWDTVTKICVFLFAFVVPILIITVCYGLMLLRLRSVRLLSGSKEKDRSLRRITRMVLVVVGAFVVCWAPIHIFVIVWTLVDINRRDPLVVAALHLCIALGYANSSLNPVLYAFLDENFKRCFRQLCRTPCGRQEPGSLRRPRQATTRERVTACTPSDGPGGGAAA
# UniProt P50391, sequence (whole entry, looked up): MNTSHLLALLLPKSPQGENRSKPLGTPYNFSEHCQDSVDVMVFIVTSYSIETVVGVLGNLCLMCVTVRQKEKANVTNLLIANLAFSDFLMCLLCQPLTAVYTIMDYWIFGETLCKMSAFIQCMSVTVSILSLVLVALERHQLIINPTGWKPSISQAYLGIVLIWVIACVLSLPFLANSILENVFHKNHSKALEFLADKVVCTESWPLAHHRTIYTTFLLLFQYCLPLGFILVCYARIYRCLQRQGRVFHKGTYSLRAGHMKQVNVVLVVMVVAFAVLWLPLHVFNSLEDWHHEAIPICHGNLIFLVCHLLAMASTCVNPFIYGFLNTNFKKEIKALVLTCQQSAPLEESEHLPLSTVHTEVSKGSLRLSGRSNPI
# UniProt O00411, sequence (whole entry, looked up): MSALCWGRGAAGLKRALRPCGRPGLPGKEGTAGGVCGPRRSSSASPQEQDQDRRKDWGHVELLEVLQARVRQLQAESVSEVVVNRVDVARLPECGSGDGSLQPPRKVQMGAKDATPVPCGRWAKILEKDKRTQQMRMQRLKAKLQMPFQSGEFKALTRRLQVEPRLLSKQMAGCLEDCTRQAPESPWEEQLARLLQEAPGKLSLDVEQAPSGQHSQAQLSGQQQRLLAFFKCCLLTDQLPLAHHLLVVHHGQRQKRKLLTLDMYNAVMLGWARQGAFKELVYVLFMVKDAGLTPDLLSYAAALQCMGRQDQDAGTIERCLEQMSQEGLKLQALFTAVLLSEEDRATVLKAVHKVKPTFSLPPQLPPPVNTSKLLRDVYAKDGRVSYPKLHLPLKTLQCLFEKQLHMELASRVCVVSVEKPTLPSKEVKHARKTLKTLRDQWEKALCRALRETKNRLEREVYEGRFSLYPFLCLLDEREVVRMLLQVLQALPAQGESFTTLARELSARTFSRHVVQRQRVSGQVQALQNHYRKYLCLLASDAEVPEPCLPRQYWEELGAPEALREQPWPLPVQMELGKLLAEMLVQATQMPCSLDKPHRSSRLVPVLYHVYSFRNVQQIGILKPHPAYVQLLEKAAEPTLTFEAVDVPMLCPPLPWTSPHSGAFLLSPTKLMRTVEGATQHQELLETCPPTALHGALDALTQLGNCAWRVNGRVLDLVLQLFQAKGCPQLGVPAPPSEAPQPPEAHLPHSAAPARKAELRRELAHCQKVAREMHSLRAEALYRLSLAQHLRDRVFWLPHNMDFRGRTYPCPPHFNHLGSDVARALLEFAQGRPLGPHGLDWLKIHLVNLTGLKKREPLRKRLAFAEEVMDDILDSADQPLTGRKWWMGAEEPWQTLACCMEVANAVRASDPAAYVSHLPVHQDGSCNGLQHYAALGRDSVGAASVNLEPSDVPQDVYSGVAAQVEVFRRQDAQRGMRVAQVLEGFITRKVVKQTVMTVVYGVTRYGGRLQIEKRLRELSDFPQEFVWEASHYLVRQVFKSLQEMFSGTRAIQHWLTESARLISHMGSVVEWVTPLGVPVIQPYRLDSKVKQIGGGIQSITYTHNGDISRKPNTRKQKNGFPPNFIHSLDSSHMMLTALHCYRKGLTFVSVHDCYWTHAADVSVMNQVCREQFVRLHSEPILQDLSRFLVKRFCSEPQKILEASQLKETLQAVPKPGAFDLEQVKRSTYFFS
# UniProt P11473, sequence (whole entry, looked up): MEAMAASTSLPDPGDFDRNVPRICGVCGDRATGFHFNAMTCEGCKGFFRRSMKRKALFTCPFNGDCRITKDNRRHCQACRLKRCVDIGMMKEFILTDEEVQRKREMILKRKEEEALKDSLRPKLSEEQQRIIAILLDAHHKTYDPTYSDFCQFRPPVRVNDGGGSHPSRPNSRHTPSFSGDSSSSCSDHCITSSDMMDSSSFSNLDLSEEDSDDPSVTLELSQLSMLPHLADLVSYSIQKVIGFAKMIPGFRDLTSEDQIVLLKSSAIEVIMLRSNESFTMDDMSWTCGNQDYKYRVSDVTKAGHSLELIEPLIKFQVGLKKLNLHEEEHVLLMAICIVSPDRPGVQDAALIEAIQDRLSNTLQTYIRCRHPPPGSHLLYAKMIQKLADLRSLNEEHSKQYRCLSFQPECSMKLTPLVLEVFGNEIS
# UniProt P11309, sequence (whole entry, looked up): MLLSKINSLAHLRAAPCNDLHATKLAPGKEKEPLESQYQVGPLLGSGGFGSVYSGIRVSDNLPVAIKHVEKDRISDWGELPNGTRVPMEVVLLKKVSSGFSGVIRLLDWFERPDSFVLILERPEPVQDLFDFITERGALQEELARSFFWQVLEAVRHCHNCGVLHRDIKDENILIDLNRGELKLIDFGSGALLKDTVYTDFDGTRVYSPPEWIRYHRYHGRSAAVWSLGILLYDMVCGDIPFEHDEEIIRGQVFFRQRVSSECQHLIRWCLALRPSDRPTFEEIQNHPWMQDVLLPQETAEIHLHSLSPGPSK
SMILES,tested on,assay,system,conditions,measurement,result
COC(=O)C=CCCC(NC(=O)c1ccncc1C(=O)O)C(=O)NC(C(=O)N1CC(=O)CC1C(=O)NC(C(=O)NC(C(N)=O)C1CCCCC1)C1CCCCC1)C(C)(C)C (stereo not drawn),"coagulation factor XIII A chain (Oryctolagus cuniculus, UniProt A0A5F9CS22)","isopeptidase activity, inhibitor",,with: A101 substrate,IC50,0.02 ± 0.001 µM
C[C@H](N)C(=O)N[C@@H](Cc1ccccc1)C(=O)N[C@@H](CCC(=O)O)C(=O)N1CCC[C@H]1C(=O)O,"DPP4 (Homo sapiens, UniProt P27487)","enzyme activity, inhibitor, absorbance",,,IC50,396 µM
CCn1nnc(-c2cccc(NC(=O)[C@H](C)CS)c2)n1,Metallo-beta-lactamase type 2,inhibitor,,"10 min preincubation, with: FC5 substrate",IC50,6.23 µM
CSc1nc(N)nc2[nH]cnc12,"replicase polyprotein 1ab, papain-like protease 2 (Porcine epidemic diarrhea virus, UniProt V5W8W2)","enzyme activity, inhibitor",,,IC50,> 200 µM
N#C[C@@]1(c2ccc3c(N)ncnn23)O[C@H](COP(=O)(O)OP(=O)(O)OP(=O)(O)O)[C@@H](O)[C@H]1O,"POLRMT (Homo sapiens, UniProt O00411)","enzyme activity, inhibitor",,,IC50,> 200 µM
CC(=O)N[C@@H](CCCNC(=N)N)C(=O)N[C@@H](Cc1ccc(O)cc1)C(=O)N[C@@H](CCCNC(=N)NC(=O)NCCCCN)C(=O)N[C@@H](CC(C)C)C(=O)N[C@@H](CCCNC(=N)N)C(=O)N[C@H](Cc1ccc(O)cc1)C(N)=O,"NPY4R (Homo sapiens, UniProt P50391)","β-arrestin 2 recruitment, antagonist",HEK293T,with: 3 nM human pancreatic polypeptide,IC50,1.12 ± 0.25 µM
O=C1c2c(O)cc(O)cc2OC2(c3ccc(O)c(O)c3)Oc3cc4oc(-c5ccc(O)cc5)c(O)c(=O)c4c(O)c3C12O (racemic),mushroom tyrosinase,,,pH 6.8,IC50,28.3 µM
CO/C(=C\C(=O)c1ccc2occc2c1OC)c1ccccc1,"APP (Homo sapiens, UniProt P05067)","amyloid aggregation, inhibitor, fluorescence",,,IC50,> 200 µM
N=C(N)NCCC[C@@H]1NC(=O)[C@H](CCCCNC(=O)CCOCCOCCOCCOCCNC(=O)CN2CCN(CC(=O)O)CCN(CC(=O)O)CCN(CC(=O)O)CC2)NC(=O)[C@@H](Cc2ccccc2)NC(=O)[C@H](CC(=O)O)NC(=O)CNC1=O [indium-111 labelled],,,"female athymic nude mice, brain","intravenous, 3 µCi, 1 h, U-87 MG glioma xenograft",tissue uptake,0.08 ± 0.02 %ID/g
CCn1nc(-c2cccs2)nc2c(=O)n(C)c(=O)nc1-2,"TPR (Trypanosoma brucei brucei, UniProt P39051)","inhibitor, DTNB-coupled colourimetric",,with: substrate at Km,IC50,12.8 µM
CN[C@](C)(C[18F])C(=O)O,MDA-MB-468 tumour model,,"host not given, kidney","30 min, tumour-bearing",tracer uptake,14 %ID/g
COC(=O)C1CN1S(=O)(=O)c1ccc(C)cc1F (stereo not drawn),PDIA3,"enzyme activity, inhibitor, absorbance",,pH 7.6,IC50,> 200 µM
CC[C@H](C)[C@H]1C(=O)O[C@H](C(C)C)C(=O)N(C)[C@@H]([C@@H](C)CC)C(=O)O[C@H](C(C)C)C(=O)N(C)[C@@H]([C@@H](C)CC)C(=O)O[C@H](C(C)C)C(=O)N1C,Hsp90 chaperone machine,"progesterone receptor hormone-binding recovery, inhibitor, reconstitution in rabbit reticulocyte lysate",,with: [3H]progesterone,IC50,~5 µM
CC(C)C[C@H](NC(=O)[C@H](C)NC(=O)[C@H](CO)NC(=O)[C@H](CC(=O)O)NC(=O)[C@H](CCC(=O)O)NC(=O)[C@@H]1CCCN1C(=O)[C@H](CC(=O)O)NC(=O)[C@H](CCC(=O)O)NC(=O)[C@@H]1CCCN1)C(=O)N[C@@H](CC(C)C)C(=O)N[C@@H](CCC(=O)O)C(=O)N[C@@H](CC(=O)O)C(=O)O,"HLA-DRA/HLA-DRB3 (Homo sapiens, UniProt P01903+P79483)","binding, competition binding",purified HLA-DR,"48 h, with: radiolabelled probe peptide 0.1-1 nM",IC50,> 5 µM
NC[C@@H]1O[C@H](O[C@H]2[C@@H](O)[C@H](O[C@@H]3[C@@H](O)[C@H](N)C[C@H](N)[C@H]3O[C@H]3O[C@H](CN)[C@@H](O)[C@H](O)[C@H]3N)O[C@@H]2Cn2cc(-c3ccc(-c4cn(C[C@H]5O[C@@H](O[C@@H]6[C@@H](O)[C@H](N)C[C@H](N)[C@H]6O[C@H]6O[C@H](CN)[C@@H](O)[C@H](O)[C@H]6N)[C@H](O)[C@@H]5O[C@H]5O[C@@H](CN)[C@@H](O)[C@H](O)[C@H]5N)nn4)cc3)nn2)[C@H](N)[C@@H](O)[C@@H]1O,HIV-1 TAR RNA,ethidium displacement,,pH 6.8,IC50,0.067 µM
CN(C)C(=O)C(NC(=O)c1ccccc1-c1ccc(C(F)(F)F)cc1)c1cccc(C(F)(F)F)c1 (stereo not drawn),KLRK1 with ULBP6,,,,IC50,5 ± 0.9 µM
COc1ccccc1[C@@H](NS(=O)(=O)c1cc2ccc(O)nc2cc1Cl)C(=O)N(CC(=O)NCCn1cc(COCCCCC(=O)N[C@H](C(=O)N2C[C@H](O)C[C@H]2C(=O)NCc2ccc(-c3scnc3C)cc2)C(C)(C)C)nn1)Cc1cccs1,"OGT (Homo sapiens, UniProt O15294)","enzyme activity, inhibitor, fluorescence",,,IC50,0.6 µM
CC(C)C[C@H](NC(=O)[C@H](C)NC(=O)[C@H](CC(N)=O)NC(=O)[C@H](CCC(=O)O)NC(=O)[C@H](CCCCN)NC(=O)CNC(=O)CNC(=O)CNC(=O)[C@H](CCCNC(=N)N)NC(=O)[C@H](CCCNC(=N)N)NC(=O)[C@H](CCCNC(=N)N)NC(=O)[C@H](CCCNC(=N)N)NC(=O)[C@H](CCCNC(=N)N)NC(=O)[C@H](CCCNC(=N)N)NC(=O)[C@H](CCCNC(=N)N)NC(=O)[C@H](CCCNC(=N)N)NC(=O)[C@@H](N)CCCNC(=N)N)C(=O)N[C@@H](CC(C)C)C(=O)N[C@@H](CCCNC(=N)N)C(=O)N[C@@H](Cc1ccc(O)cc1)C(=O)N[C@@H](CC(C)C)C(=O)N[C@@H](CC(C)C)C(=O)N[C@@H](CC(=O)O)C(=O)N[C@@H](CCCCN)C(=O)N[C@@H](CC(=O)O)C(N)=O,"Vitamin D3 receptor (VDR, Homo sapiens, UniProt P11473)","reporter gene, antagonist, dual-luciferase",MCF7,"16 h, with: calcitriol 30 nM",IC50,2.03 ± 0.29 µM
COc1ccc(-c2ccc(OC)c(NC(=O)[C@H](C)CS)c2)nn1,"blaNDM-1 (Klebsiella pneumoniae, UniProt C7C422)","enzyme activity, inhibitor, fluorescence",,with preincubation,IC50,1.27 µM
CC[C@H](C)[C@H](NC(=O)[C@H](C)N)C(=O)N[C@@H](CCCNC(=N)N)C(=O)N[C@@H](Cc1c[nH]cn1)C(=O)N[C@@H](CCCNC(=N)N)C(=O)N[C@H](C(=O)N[C@@H](CC(N)=O)C(=O)N[C@@H](CC(N)=O)C(=O)N[C@@H](CO)C(=O)N[C@H](C(=O)N[C@@H](Cc1c[nH]c2ccccc12)C(=O)N[C@@H](CCCNC(=N)N)C(=O)N[C@@H](CC(=O)O)C(=O)N[C@H](C(=O)N[C@@H](Cc1ccccc1)C(=O)N[C@@H](CC(C)C)C(=O)N[C@@H](CCCCN)C(=O)N[C@@H](CCCNC(=N)N)C(=O)N[C@@H](CCCCN)C(=O)O)[C@@H](C)CC)[C@@H](C)CC)[C@@H](C)CC,"Sensor histidine kinase ComD (Streptococcus gordonii, UniProt O33646)",,,,IC50,> 1 µM
CC(C)[C@H](NC(=O)[C@@H]1CCNC(=O)NCCCC[C@@H](NC(=O)[C@@H](N)Cc2ccc(O)cc2)C(=O)NCC(=O)N[C@@H](Cc2ccccc2)C(=O)N1)C(=O)N[C@H](C(=O)NCC(=O)NCCNC(N)=O)C(C)C,"Oprd1 (Mus musculus, UniProt P32300)","contraction inhibition, agonist","mouse, isolated vas deferens",,IC50,0.0169 ± 0.0005 µM
CC[C@H](C)[C@@H]1NC(=O)CNC(=O)[C@H]([C@@H](C)CC)NC(=O)[C@H](Cc2ccc(O)cc2)NC(=O)[C@H](CCCNC(=N)N)NC(=O)CNC(=O)[C@H](CCCNC(=N)N)NC(=O)[C@H]([C@@H](C)CC)NC(=O)[C@H](C(C)C)NC(=O)[C@H]([C@@H](C)CC)NC(=O)[C@H](CO)NC(=O)[C@H](C(C)C)NC(=O)[C@H](CO)NC(=O)[C@@H](Cc2ccc(O)cc2)NC(=O)CSC[C@@H](C(=O)NCC(N)=O)NC(=O)[C@H](CCCNC(=N)N)NC(=O)[C@H]([C@@H](C)CC)NC1=O,NNMT,"enzyme activity, inhibitor, mass spectrometry",,,IC50,0.229 µM
C[C@H](CS)C(=O)Nc1ccccc1-c1nn[nH]n1,Metallo-beta-lactamase type 2,inhibitor,,"10 min preincubation, with: FC5 substrate",IC50,9.87 µM
CNC(=O)NC(=N)NCCC[C@@H]1NC(=O)[C@@H]([C@H](C)O)NC(=O)C[C@@H](C(=O)O)NC(=O)C[C@@H](C(=O)O)NC(=O)[C@H](Cc2ccccc2)N(C)C1=O,"Endochitinase B1 (Aspergillus fumigatus, UniProt Q873X9)","enzyme activity, inhibitor, fluorometric",,"10 min, pH 5.5, 37 °C, with: 20 µM 4-MU-chitobiose",IC50,0.182 µM
CC(=O)C(NC(=O)c1ccccc1-c1ccc(C(F)(F)F)cc1)c1cccc(C(F)(F)F)c1 (stereo not drawn),KLRK1 with ULBP6,"ligand binding, inhibitor, TR-FRET",HEK293 expressing NKG2D and DAP10,with: ULBP6-AF647,IC50,> 20 µM
COCc1c(C(=O)O)nnn1Cc1c(F)cccc1Cl,Metallo-beta-lactamase type 2,inhibitor,,"10 min preincubation, with: FC5 fluorogenic substrate",IC50,2.37 µM
CC(C)C[C@@H]1NC(=O)[C@H](CCCCN)NC(=O)CNC(=O)CNC(=O)[C@H](Cc2ccccc2)NC(=O)[C@H](CO)NC(=O)[C@H](Cc2ccccc2)NC(=O)[C@H](C(C)C)NC(=O)[C@H](Cc2ccc(O)cc2)NC(=O)[C@H](C(C)C)NC(=O)[C@H](Cc2ccc(O)cc2)NC(=O)CSC[C@@H](C(=O)NCC(N)=O)NC(=O)[C@H](CCCCN)NC(=O)[C@H](CCCNC(=N)N)NC(=O)[C@H](C(C)C)NC(=O)[C@H](CC(C)C)NC(=O)[C@H](Cc2ccc(O)cc2)NC1=O,NNMT,"enzyme activity, inhibitor, mass spectrometry",,,IC50,5.34 µM
CCCCCCC[N+](CCCCCCC)(CCCCCCC)CCCCCCC,"KCNK18 (Homo sapiens, UniProt Q7Z418)","ion current, inhibitor, patch clamp",,,IC50,0.5 µM
CC[N+](CC)(CC)CC,"Potassium channel protein kcv, L70A in three subunits (A250R, Paramecium bursaria Chlorella virus 1, UniProt Q84568, L70A)",,,,IC50,8500 ± 1200 µM
CC(C)(C)c1ccc(NC(=O)NCCC[C@H](CNCc2ccccc2)C[C@H]2O[C@@H](n3cnc4c(N)ncnc43)[C@H](O)[C@@H]2O)cc1,"Actin-histidine N-methyltransferase (SETD3, Homo sapiens, UniProt Q86TU7)","enzyme activity, inhibitor, radiometric",,,IC50,> 50 µM
COc1cc(C(=O)NCCOCCOCCOCCNC(=O)c2ccc([18F])nc2)ccc1NC(=O)C1NC(CC(C)(C)C)C(C#N)(c2ccc(Cl)cc2F)C1c1cccc(Cl)c1F (stereo not drawn),SJSA-1 tumour model,,"host not given, muscle","2 h, tumour-bearing",tracer uptake,0.53 %ID/g
NC(=O)C1CN1S(=O)(=O)c1ccc(C(F)(F)F)cc1 (stereo not drawn),PDIA3,"enzyme activity, inhibitor, absorbance",,pH 7.6,IC50,> 200 µM
COc1ccc2nc(C)cc(OCC(=O)Nc3ccccc3OC)c2c1,"Cytochrome P450 2C9 (CYP2C9, Homo sapiens, UniProt P11712)",inhibitor,,,IC50,0.6 µM
O=C(O)c1ccccc1-c1c2ccc(=O)c([As]3SCCS3)c-2oc2c([As]3SCCS3)c(O)ccc12,"Ptpn11 (Mus musculus, UniProt P35235)",phosphatase activity,E. coli lysate,"120 min, 37 °C, wild-type Shp2 lysate, with: pNPP 10 mM",IC50,6 µM
Cc1cccc2c1NC(=O)C2=Cc1ccc(-c2cccc(C(=O)N3CCCN(C)CC3)c2)o1 (mixture of isomers),"PIM1 (Homo sapiens, UniProt P11309)","enzyme activity, inhibitor",,,IC50,0.0695 µM
[Cl][Au-][P+](c1ccccc1)(c1ccccc1)c1cc[cH-]c1.[Cl][Au-][P+](c1ccccc1)(c1ccccc1)c1cc[cH-]c1.[Cl][Ti+2][Cl],"MAPK7 (Homo sapiens, UniProt Q13164)","enzyme activity, inhibitor, radiometric",,,IC50,3.95 µM
